Measured values collected from several papers.
A part holds a random share of what one study measured.
UniProt Q13153, sequence (whole entry, looked up): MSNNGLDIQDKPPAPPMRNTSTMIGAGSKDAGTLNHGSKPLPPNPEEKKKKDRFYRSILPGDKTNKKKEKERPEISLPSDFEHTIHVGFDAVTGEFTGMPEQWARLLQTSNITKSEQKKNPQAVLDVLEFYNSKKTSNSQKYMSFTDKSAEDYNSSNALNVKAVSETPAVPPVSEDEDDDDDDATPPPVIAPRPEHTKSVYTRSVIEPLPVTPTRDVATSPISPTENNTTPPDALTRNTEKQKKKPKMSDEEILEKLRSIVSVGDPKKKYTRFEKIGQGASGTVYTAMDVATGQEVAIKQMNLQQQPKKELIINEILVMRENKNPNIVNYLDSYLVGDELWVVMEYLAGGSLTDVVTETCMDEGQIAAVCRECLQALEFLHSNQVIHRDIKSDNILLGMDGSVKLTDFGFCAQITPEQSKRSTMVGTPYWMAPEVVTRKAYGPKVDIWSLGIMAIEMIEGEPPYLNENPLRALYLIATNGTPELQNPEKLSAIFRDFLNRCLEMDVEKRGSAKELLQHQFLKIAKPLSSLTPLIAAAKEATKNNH
UniProt P51451, sequence (whole entry, looked up): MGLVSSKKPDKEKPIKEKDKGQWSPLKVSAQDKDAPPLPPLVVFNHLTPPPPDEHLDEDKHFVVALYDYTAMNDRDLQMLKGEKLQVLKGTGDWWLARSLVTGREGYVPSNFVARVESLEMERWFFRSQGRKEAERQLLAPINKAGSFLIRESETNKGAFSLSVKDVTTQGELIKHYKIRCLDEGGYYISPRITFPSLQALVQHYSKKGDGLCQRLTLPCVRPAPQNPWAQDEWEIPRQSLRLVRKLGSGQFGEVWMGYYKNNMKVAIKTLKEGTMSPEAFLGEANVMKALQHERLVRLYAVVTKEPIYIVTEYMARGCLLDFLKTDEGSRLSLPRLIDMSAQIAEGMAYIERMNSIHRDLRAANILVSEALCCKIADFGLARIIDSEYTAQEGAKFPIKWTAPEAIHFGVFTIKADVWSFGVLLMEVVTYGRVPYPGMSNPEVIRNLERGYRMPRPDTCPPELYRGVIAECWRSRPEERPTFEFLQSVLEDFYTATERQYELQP
UniProt P78356, sequence (whole entry, looked up): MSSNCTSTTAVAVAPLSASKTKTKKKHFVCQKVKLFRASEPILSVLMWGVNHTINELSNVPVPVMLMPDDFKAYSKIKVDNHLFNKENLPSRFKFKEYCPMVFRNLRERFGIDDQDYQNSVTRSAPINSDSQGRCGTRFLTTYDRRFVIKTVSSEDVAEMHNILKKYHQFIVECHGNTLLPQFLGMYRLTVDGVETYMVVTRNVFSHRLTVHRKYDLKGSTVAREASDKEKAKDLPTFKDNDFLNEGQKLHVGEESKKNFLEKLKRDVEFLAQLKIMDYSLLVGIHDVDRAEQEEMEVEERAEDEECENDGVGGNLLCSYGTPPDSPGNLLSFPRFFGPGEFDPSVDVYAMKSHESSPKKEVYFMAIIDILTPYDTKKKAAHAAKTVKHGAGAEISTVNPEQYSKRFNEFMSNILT
UniProt P57078, sequence (whole entry, looked up): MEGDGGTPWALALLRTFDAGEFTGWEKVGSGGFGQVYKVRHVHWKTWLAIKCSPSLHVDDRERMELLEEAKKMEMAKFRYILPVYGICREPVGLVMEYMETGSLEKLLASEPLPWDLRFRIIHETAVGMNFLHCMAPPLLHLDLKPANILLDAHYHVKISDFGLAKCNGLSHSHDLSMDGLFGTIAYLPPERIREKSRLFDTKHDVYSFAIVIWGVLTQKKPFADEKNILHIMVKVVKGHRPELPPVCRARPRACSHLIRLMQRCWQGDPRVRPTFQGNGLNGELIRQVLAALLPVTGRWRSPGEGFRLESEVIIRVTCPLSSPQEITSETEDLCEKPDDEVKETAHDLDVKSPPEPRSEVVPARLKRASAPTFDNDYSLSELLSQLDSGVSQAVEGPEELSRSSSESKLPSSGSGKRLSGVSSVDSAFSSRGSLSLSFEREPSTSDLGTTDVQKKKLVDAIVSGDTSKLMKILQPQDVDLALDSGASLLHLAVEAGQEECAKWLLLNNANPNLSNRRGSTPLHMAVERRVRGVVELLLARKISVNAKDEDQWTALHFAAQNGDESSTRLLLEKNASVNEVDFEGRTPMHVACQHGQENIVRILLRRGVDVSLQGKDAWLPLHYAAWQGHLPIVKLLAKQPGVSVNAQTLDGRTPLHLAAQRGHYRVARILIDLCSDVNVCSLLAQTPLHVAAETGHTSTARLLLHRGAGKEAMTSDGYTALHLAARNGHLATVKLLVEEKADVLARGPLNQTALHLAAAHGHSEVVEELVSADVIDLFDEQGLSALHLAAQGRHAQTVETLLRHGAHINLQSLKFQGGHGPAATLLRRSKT
UniProt Q96RR4, sequence (whole entry, looked up): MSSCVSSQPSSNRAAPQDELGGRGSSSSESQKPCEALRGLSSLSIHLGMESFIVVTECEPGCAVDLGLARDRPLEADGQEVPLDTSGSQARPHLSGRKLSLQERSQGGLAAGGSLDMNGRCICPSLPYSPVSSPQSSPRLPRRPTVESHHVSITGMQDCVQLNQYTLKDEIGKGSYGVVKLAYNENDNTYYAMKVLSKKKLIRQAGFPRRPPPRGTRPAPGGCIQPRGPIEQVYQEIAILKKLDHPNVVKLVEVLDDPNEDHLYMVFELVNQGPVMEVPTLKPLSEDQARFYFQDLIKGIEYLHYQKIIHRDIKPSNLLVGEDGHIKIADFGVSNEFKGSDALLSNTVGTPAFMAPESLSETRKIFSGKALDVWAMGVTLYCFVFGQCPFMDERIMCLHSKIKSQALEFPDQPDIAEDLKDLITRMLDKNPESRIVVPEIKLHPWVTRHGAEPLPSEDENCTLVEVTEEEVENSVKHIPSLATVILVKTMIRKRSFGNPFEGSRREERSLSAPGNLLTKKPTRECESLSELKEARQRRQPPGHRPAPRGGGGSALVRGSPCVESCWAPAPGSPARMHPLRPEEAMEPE
UniProt Q9UQ88, sequence (whole entry, looked up): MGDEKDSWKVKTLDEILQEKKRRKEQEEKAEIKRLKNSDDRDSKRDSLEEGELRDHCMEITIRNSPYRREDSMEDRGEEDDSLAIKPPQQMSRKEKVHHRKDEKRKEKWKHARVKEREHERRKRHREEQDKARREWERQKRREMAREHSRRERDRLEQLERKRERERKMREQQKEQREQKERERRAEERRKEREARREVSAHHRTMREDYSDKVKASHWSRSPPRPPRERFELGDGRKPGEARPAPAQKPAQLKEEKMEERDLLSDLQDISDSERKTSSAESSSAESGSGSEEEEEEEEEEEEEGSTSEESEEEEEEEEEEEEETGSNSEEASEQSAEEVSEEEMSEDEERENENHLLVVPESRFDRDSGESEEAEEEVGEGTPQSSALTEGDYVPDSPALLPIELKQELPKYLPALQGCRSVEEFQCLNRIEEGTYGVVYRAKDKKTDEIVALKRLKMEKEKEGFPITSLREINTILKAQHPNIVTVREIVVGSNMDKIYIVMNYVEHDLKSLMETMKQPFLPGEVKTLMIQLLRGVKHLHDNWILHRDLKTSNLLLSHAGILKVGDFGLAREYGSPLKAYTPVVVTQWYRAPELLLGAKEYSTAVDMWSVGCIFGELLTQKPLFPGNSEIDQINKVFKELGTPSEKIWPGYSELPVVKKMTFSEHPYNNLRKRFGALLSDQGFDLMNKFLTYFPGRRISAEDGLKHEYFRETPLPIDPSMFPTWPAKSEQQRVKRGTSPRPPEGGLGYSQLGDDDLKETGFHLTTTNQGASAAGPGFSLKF

Set 1 — organism: Plasmodium berghei; mode: inhibitor; cell line: Huh-7; strain: GFP-expressing, liver stage; tested at: 10 µM; time: 24 h; baseline: untreated control; endpoint: infection rate
COc1ccc(CN(CCN(C)C)c2ncccn2)cc1: 102%
C1CNCCN1: 100%
NC(=O)c1ccccc1O: 99.3%
CCn1cc(C(=O)O)c(=O)c2cc(F)c(N3CCNCC3)cc21: 115%
CNCCCC1c2ccccc2C=Cc2ccccc21: 86.3%
CCCCCC(C)N (stereo not shown): 102%
CC[C@H](C)C(=O)O[C@H]1C[C@H](O)C=C2C=C[C@H](C)[C@H](CC[C@@H](O)C[C@@H](O)CC(=O)O)[C@H]21: 107%
CC1=C(/C=C/C(C)=C/C=C/C(C)=C/C(=O)O)C(C)(C)CCC1: 67.8%
Nc1ccc(S(=O)(=O)Nc2cnc3ccccc3n2)cc1: 113%
COc1ccc2[nH]c([S+]([O-])Cc3ncc(C)c(OC)c3C)nc2c1 (stereo not shown): 80.6%
CN(C)CCCN1c2ccccc2Sc2ccccc21: 92.3%

Set 2 — Compound: CC(C)(O)c1cncc(-c2nc3ccc(F)cc3n2C2CC2)c1; technique: competition with immobilised ligand; tested at: 1 µM; endpoint: remaining binding
CAMKK2 (Homo sapiens, UniProt Q96RR4); cell-free assay: 100%
EGFR (Homo sapiens, UniProt P00533, del747-752/P753S); cell-free assay: 100%
EPHA1 (Homo sapiens, UniProt P21709); cell-free assay: 100%
PAK1 (Homo sapiens, UniProt Q13153); cell-free assay: 100%
CLK2 (Homo sapiens, UniProt P49760); cell-free assay: 100%
CDK2 (Homo sapiens, UniProt P24941); cell-free assay: 100%
BLK (Homo sapiens, UniProt P51451); cell-free assay: 98%
FER (Homo sapiens, UniProt P16591); cell-free assay: 100%
EGFR (Homo sapiens, UniProt P00533, A750P/del747-749); cell-free assay: 100%
VRK2 (Homo sapiens, UniProt Q86Y07); cell-free assay: 100%
TNNI3K (Homo sapiens, UniProt Q59H18); cell-free assay: 100%
PIP4K2B (Homo sapiens, UniProt P78356); cell-free assay: 99%
CDK11A (Homo sapiens, UniProt Q9UQ88); binding: 100%
RIPK4 (Homo sapiens, UniProt P57078); cell-free assay: 100%
NEK6 (Homo sapiens, UniProt Q9HC98); cell-free assay: 100%
PKN2 (Homo sapiens, UniProt Q16513); cell-free assay: 100%
ROCK2 (Homo sapiens, UniProt O75116); cell-free assay: 92%
EGFR (Homo sapiens, UniProt P00533, L858R/T790M); cell-free assay: 92%

Set 3 — effect on: AlphaScreen signal; technique: AlphaScreen counter screen; sample: His6 peptide without bromodomain; tested at: 50 µM; notes: assay interference check; endpoint: inhibition
Cc1ccc(NC(=O)c2ccc(CN3CC[C@H](N(C)C)C3)c(C(F)(F)F)c2)cc1Nc1nccc(-c2cncnc2)n1: 48.9%
C=CC(=O)N1CCC[C@@H](n2nc(-c3ccc(Oc4ccccc4)cc3)c3c(N)ncnc32)C1: 34.1%
O=c1[nH]cnc2scc(-c3ccc(Cl)cc3)c12: 78.9%
O=C(Nc1ccc(N2CCOCC2)cc1)Nc1ccc(Cl)c(Cl)c1: 29.9%
CN(C)CC1CCn2cc(c3ccccc32)C2=C(C(=O)NC2=O)c2cn(c3ccccc23)CCO1 (stereo not shown): 91.2%
Cc1ccc(NC2=CC(=O)c3sc(C)nc3C2=O)cc1: 82.8%
Cc1ccc2c(c1)C(=NNC(=O)c1ccc(Cl)cc1)C(=O)N2: 10.7%
C=CCc1cccc(C=NCCS(=O)(=O)O)c1O: 16.2%
O=c1[nH]ccc2c(S(=O)(=O)N3CCCNCC3)cccc12: 1.75%
Cl.Cl.Cl.Cn1cc(-c2[nH]c3cc(NC(=O)[C@H](N)C4CCCCC4)cc4c3c2C=NNC4=O)cn1: 66.4%
N#CC(=Cc1cccnc1)c1nc2ccccc2s1: 23%
Cc1ccc(-c2csc3nc[nH]c(=O)c23)cc1C: 16.1%
C[S+]([O-])c1ccc(CSc2nc(-c3ccc(F)cc3)c(-c3ccncc3)[nH]2)cc1 (stereo not shown): 11.2%
N#Cc1ccc(C(=O)Nc2cc(N3CCCCC3)ccc2N2CCCCC2)o1: 59.3%

Set 4 — effect on: enzyme activity; mode: inhibitor; tested at: 0.5 µM; baseline: control; endpoint: remaining activity
Target: Insulin receptor-related protein (INSRR, Homo sapiens, UniProt P14616)
UniProt P14616, sequence (whole entry, looked up): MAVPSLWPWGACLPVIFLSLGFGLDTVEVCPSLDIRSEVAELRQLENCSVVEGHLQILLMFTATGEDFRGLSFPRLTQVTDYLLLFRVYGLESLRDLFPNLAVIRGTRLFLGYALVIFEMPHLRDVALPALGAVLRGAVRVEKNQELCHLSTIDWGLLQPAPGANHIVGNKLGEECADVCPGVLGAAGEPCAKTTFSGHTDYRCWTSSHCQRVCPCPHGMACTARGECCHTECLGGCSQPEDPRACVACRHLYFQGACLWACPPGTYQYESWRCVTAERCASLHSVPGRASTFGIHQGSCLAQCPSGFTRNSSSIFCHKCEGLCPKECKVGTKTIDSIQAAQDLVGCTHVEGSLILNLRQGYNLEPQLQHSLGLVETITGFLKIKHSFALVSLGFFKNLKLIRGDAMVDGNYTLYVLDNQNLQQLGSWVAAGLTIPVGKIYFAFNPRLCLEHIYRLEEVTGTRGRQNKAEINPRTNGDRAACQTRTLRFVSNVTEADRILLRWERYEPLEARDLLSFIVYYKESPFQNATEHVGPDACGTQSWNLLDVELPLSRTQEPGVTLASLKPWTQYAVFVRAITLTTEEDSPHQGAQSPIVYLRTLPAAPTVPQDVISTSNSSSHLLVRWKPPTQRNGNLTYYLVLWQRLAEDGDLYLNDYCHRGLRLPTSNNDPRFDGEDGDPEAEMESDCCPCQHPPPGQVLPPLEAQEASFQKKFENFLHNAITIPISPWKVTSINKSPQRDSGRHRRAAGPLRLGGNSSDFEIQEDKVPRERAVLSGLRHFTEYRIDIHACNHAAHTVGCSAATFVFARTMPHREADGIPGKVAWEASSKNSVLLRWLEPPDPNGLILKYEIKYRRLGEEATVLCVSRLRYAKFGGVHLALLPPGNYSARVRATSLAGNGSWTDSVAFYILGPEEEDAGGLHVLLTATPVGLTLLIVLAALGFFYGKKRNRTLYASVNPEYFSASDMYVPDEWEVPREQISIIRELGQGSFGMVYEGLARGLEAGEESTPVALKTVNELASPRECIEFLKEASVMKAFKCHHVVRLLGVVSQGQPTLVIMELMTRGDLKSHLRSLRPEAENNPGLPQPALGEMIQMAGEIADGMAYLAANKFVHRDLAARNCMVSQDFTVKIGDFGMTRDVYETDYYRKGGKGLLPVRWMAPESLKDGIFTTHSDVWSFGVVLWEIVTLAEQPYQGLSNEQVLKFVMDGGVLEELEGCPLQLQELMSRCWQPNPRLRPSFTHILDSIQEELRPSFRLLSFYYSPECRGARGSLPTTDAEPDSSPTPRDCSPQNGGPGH
O=C1NC(=O)/C(=C/c2ccc3c(c2)OC(F)(F)O3)S1: 110%
COc1cc2c(N3CCN(C(=O)Nc4ccc(OC(C)C)cc4)CC3)ncnc2cc1OCCCN1CCCCC1: 98.9%
CC(C)N(CCC(=O)c1ccc2ccccc2c1)Cc1ccccc1: 90.1%
O=c1c(-c2ccc(F)cc2)c(-c2ccncc2)[nH]n1-c1ccc(Cl)cc1: 95.4%
NC(=O)c1cccc(-c2cc(Nc3ccc(OC(F)(F)F)cc3)ncn2)c1: 90.7%
O=C1c2ccccc2-c2nc3nnnn3nc21: 86.7%
c1cc(-c2cnn3cc(-c4ccc(OCCN5CCCCC5)cc4)cnc23)ccn1: 90.1%
N#CC(c1ccnc(NCCc2cccnc2)n1)c1nc2ccccc2s1 (stereo not shown): 92.2%
CC(C)n1cnc2c(Nc3cccc(Cl)c3)nc(NCCO)nc21: 82.5%
CNc1cc2c(Nc3cccc(Br)c3)ncnc2cn1: 98.2%
O=C(O)/C=C/c1cc(Br)c(Br)c(Br)c1Br: 88.2%
N#C/C(=C(/N)SC1C=CC=CC1)c1cccc(C(O)c2ccncc2)c1 (stereo not shown): 95.3%
C[C@@H](N)[C@H]1CC[C@H](C(=O)Nc2ccncc2)CC1: 97.2%
CC(C)(C)c1nc2c3cc[nH]c(=O)c3c3cc(F)ccc3c2[nH]1: 75.2%
NC(=O)c1ccc(-c2nc(-c3ccc4c(c3)OCCO4)c(-c3ccccn3)[nH]2)cc1: 86.6%

For quick reference, copied from above (set 2):
NEK6 (Homo sapiens, UniProt Q9HC98); cell-free assay: 100%
EGFR (Homo sapiens, UniProt P00533, A750P/del747-749); cell-free assay: 100%
EPHA1 (Homo sapiens, UniProt P21709); cell-free assay: 100%
